# Measurements collected from several papers.
# A part holds a random share of what one study measured.
# UniProt Q86TM3, sequence (33-130, looked up): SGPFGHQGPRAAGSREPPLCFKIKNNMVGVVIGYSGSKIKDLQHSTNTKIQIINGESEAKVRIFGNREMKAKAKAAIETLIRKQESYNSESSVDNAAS

# Block 1 — method: competition protein-binding microarray; form: double-stranded DNA, one strand shown; medium: in vitro; concentration: 2 µM; with: Cbf1 competitor, 0.05 µM; reading: higher = stronger binding; all sequences stand within: … GTCTTGATTCGCTTGACGCTGCTG
# Target: Phosphate system positive regulatory protein PHO4, full length, GST-tagged (PHO4, Saccharomyces cerevisiae, UniProt P07270, residues 1-312)
# Setting: whole 60-bp probe, lowest competitor level
# Target sequence (chain): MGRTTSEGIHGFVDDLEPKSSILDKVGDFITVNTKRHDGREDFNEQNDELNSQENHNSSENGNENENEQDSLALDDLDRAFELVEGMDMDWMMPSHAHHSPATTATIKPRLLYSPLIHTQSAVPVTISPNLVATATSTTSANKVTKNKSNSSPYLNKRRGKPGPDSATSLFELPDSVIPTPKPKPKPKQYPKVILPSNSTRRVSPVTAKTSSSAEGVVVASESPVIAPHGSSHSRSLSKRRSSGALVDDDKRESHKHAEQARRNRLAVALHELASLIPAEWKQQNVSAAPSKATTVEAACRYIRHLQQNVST
Sequence,fluorescence intensity [a.u.]
TAAGTTGTCAGGTTTCACGTGGCAACTACAAGAAAA,12900
TTTGTTGCAACTATCCGCGTGGCCGATTGAGAGTCC,10400
AAGAACCTGCAAGGGCATGTGCGGTTGTTGGAGCGA,10400
TGCGCAACAACTTGTCACATAACTTTATGTCTAGAA,3130
GTTCATGGAAGTGGTGGCCTGATCCATTTGCTGGTG,3990
AAAGCGGTAATTTGACCCGTGGGTGCAGATATCTAT,9700
CGTCCTAGTGATTGTCACGGAACTTCCATGAGGAAG,4620
CTTCTGTAAATTTTTCACGTGCCATGACGCGCCCCG,17100

# Block 2 — method: protein-binding microarray; form: double-stranded DNA, one strand shown; medium: in vitro; concentration: 2200 nM top; setting: 60-bp whole probe; with: salmon DNA 0.4 mg/ml; baseline: random background probes; reading: higher = stronger binding; all sequences stand within: GCCTAGCAC … GTCTTGATTCGCTTGACGCTGCTG
# Target: Interferon regulatory factor 7, full length, phosphomimetic (IRF7, Homo sapiens, UniProt Q92985, residues 1-503, S471D/S472D/S475D/S476D/S477D/S483D/S484D/S487D)
# Target sequence (chain): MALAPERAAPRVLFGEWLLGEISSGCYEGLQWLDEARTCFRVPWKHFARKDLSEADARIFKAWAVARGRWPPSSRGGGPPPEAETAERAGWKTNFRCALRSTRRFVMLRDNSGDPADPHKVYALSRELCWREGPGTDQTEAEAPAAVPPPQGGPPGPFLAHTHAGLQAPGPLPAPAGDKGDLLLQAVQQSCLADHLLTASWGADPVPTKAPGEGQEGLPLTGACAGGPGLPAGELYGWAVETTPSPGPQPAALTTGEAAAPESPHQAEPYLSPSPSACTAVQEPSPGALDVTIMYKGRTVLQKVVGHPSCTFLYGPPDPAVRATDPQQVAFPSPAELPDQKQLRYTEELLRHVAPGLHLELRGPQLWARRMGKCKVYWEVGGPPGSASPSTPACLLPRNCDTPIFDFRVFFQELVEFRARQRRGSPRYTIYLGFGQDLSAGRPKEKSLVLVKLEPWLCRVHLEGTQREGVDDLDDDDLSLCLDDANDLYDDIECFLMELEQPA
Sequence,fitted relative affinity
CACGATCTCAGTCTCGAGACGTGCTAG,0.845 z-score
TAAGGTATCGACTTTCGGTTAGTGCTA,5.89 z-score
CGAGGTCTCGCTATGTTGTCGTGCTAG,0.744 z-score
TCGGGTCTCCCTTGAGGTTTGTGCTAG,1.47 z-score
GACGATTTCAGTATCGAGTCGTGCTAG,1.46 z-score
TTAGGTATCGACATTCGGTTAGTGCTA,1.55 z-score
TTAGGACTGGGCTTCGGTTAGTGCTAG,-0.537 z-score
TCATGTCTCTGGCCTGGGACTGTGCTA,0.334 z-score

# Block 3 — cell line: sample F normal colon organoid; method: CellTiter-Glo; concentration: 1 µM; time: 4 days; baseline: DMSO
SMILES,viability
C[C@H](c1ccnc(Nc2nc3ccc(-c4cc(N(C)C)ncn4)cc3[nH]2)c1)N1CCN(C(=O)CC(F)(F)F)CC1,107%
NS(=O)(=O)c1cc(NC(=O)Cc2ccccc2)ccc1Oc1cccc(Cl)c1,102%
CN(c1ccnc(CNc2nc(Nc3ccc4c(c3)CC(=O)N4)ncc2C(F)(F)F)n1)S(C)(=O)=O,108%
CCCCN(Cc1ccccc1)C(=O)c1ccc(S(=O)(=O)Nc2ccccc2)cc1,109%
Cc1c(NC(=O)c2cc(C(N)=O)nc3cc(F)ccc23)c(C(F)(F)F)nn1Cc1ccc(C#N)cc1,36.2%

# Block 4 — effect on: enzyme activity; action: inhibitor; concentration: 0.5 µM; baseline: control
# Target: Death-associated protein kinase 1 (DAPK1, Homo sapiens, UniProt P53355)
# UniProt P53355, sequence (whole entry, looked up): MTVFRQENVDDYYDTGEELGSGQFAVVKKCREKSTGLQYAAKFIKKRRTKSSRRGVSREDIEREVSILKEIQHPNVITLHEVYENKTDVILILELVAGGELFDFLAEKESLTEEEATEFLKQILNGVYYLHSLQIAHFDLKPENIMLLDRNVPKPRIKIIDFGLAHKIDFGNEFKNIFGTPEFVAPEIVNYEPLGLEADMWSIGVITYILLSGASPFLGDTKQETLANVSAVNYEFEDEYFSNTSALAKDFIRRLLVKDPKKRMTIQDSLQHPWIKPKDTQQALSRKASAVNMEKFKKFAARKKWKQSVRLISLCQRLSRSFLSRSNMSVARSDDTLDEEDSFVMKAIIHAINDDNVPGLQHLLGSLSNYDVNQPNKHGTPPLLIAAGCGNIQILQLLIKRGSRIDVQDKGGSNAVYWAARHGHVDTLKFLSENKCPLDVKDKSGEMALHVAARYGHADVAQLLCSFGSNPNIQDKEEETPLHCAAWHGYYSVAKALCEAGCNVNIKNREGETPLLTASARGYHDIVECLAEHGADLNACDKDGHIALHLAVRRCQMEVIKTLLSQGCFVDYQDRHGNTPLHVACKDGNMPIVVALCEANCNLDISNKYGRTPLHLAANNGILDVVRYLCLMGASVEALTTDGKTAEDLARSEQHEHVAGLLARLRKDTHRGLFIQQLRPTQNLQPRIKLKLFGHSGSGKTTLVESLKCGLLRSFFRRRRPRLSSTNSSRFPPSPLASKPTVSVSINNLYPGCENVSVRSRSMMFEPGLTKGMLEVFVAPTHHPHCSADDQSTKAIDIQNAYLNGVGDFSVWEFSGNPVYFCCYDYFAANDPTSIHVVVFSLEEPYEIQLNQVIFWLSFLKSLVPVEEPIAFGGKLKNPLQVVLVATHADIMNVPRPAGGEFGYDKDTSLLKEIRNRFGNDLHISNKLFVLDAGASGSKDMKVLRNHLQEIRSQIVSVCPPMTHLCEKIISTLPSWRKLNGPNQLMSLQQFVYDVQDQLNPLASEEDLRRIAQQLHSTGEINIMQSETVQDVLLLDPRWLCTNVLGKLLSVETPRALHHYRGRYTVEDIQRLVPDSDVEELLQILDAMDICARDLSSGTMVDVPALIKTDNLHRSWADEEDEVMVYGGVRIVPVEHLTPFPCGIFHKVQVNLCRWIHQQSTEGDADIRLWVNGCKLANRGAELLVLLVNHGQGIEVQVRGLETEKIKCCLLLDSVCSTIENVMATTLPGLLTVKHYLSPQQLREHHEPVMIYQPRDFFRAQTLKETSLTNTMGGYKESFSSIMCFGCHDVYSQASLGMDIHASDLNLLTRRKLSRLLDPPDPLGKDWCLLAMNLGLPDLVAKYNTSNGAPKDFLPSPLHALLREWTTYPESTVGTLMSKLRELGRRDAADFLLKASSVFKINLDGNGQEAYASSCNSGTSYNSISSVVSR
SMILES,remaining activity [%]
COc1cc2ncnc(Nc3ccc(Oc4ccccc4)cc3)c2cc1OC,105
COc1ccc(CNC(=O)Nc2ncc([N+](=O)[O-])s2)cc1,105
CC(C)[C@H](CO)Nc1nc(Nc2cc(N)cc(Cl)c2)c2ncn(C(C)C)c2n1,95.3
O=C1NC(=O)C(c2cn(CCCO)c3ncccc23)=C1c1cnccn1,74.4
Cn1sc(=O)n(Cc2ccccc2)c1=O,97.9
COc1ccc(C(=O)Nc2sc3c(c2C(N)=O)CCCC3)cc1OC,78.2
CN(C)c1ccc(C=C2C(=O)Nc3ccccc32)cc1,92.2
CNC(=O)c1cc(Oc2ccc(NC(=O)Nc3ccc(Cl)c(C(F)(F)F)c3)cc2)ccn1,101
O=C(O)c1ccc2c3c1cccc3c(=O)n1c3ccccc3nc21,40.9
Oc1ccc(-c2nc(-c3ccncc3)c(-c3ccc(F)cc3)[nH]2)cc1,95
O=S(=O)(c1cccc2cnccc12)N1CCCNCC1,79
O=c1c2ccccc2[nH]c(=S)n1CCN1CCC(=C(c2ccc(F)cc2)c2ccc(F)cc2)CC1,93.8
COc1ccc(OC)c2c(=S)c3ccccc3[nH]c12,106
Nc1ccc2ncnc(NCCc3ccc(Oc4ccccc4)cc3)c2c1,110
O=C(CCCc1ccc(-c2ccccc2F)cc1)Nc1ccc(O)cc1,110

# Other studies, line by line
Sequence,target,test,test system,conditions,scale,measurement,result
AAAAAAAA (biotin),"Probable ATP-dependent RNA helicase DDX53, KH domain (DDX53, Homo sapiens, UniProt Q86TM3, residues 33-130)",protein domain microarray,"RNA, in vitro","not given, poly(A) 8-mer RNA, whole probe, immobilized GST-fusion domains, most near background","baseline: GST loading signal, higher = stronger binding",signal ratio,0.0737

# Repeated from above (block 1):
Sequence,fluorescence intensity [a.u.]
CGTCCTAGTGATTGTCACGGAACTTCCATGAGGAAG,4620
TAAGTTGTCAGGTTTCACGTGGCAACTACAAGAAAA,12900
CTTCTGTAAATTTTTCACGTGCCATGACGCGCCCCG,17100
